Results of several laboratories.
Compare with care: the assays were run in different laboratories.
Observed: metabolic stability

Structure (SMILES) | species | sample | concentration | pH | half-life
O=C(c1ccc(-c2cc3nccc(-c4ccc5cnccc5c4)c3o2)cc1)N1CCNCC1 | mouse | liver microsomes | – | – | 7.7 min
Cc1c(Cc2ccc(F)c(OC(C)C(=O)O)c2)c2ccc(C(=O)NC(C)c3ccc(C(C)(C)C)cc3)cc2n1CC1CCC1 (stereo not drawn) | mouse | liver microsomes | – | – | > 60 min
CC(C)n1ncc2c(C(=O)NCC(C)(C)N)cc(C3CC3)nc21 | mouse | liver microsomes | – | – | > 145 min
O=c1c(-c2cnn(-c3ccc(Cl)cc3)c2)c(C(F)(F)F)oc2c(O)c(O)ccc12 | mouse | liver microsomes | – | – | 321 min
Cc1ncsc1-c1ccc(CNC(=O)[C@@H]2C[C@@H](O)CN2C(=O)[C@@H](NC(=O)COCCOCCOCCNC(=O)C[C@@H]2N=C(c3ccc(Cl)cc3)c3c(sc(C)c3C)-n3c(C)nnc32)C(C)(C)C)cc1 | mouse | liver microsomes | 1 µM | – | 5.2 min
Cc1nn(C)c2nnc(-c3ccccc3)c(Cl)c12 | mouse | liver microsomes | 1 µM | – | < 5 min
N=C(c1ccc([N+](=O)[O-])o1)N1CCC(NC(=O)c2cc(-c3ccc(F)cc3F)on2)(c2nc3ccccc3[nH]2)CC1 | mouse | liver microsomes | 1 µM | – | 6.3 min
Cc1c(Cc2cccc(OC(C)(C)C(=O)O)c2)c2ccc(C(=O)N[C@@H](C)c3ccc(F)c(C(C)(C)C)c3)cc2n1CC(C)C | mouse | liver microsomes | – | – | > 60 min
CC(C)n1ncc2c(C(=O)NCC3CNC3)cc(C3CC3)nc21 | mouse | liver microsomes | – | – | > 145 min
Cc1c(Cc2cccc(OC(C)(C)C(=O)O)c2)c2ccc(C(=O)N[C@@H](C)c3ccc(C(C)(C)C)cc3)cc2n1CC1CCC1 | mouse | liver microsomes | – | – | > 60 min
C/C(=N\OCCCN1CCOCC1)c1ccc(C(F)(F)F)cc1 | mouse | liver microsomes | – | – | 18.9 min
C#CCCCC/C=C/C(=O)NC1(c2ccc(-c3nc4ccn5c(=O)[nH]nc5c4cc3-c3ccccc3)cc2)CCC1 | CD-1 mouse | liver microsomes | 1 µM | pH 7.4 | 24.7 min
O=C(N[C@@H](CCCCNC(=O)c1ccc([N+](=O)[O-])o1)c1nc2ccccc2[nH]1)c1ccc(-c2ccccc2)cc1 | mouse | liver microsomes | 1 µM | – | 6.6 min
Cc1c(Cc2cccc(OC(C)(C)C(=O)O)c2)c2ccc(C(=O)N[C@@H](C)c3cccc(C(C)(C)C)c3)cc2n1CC(C)(C)C | mouse | liver microsomes | – | – | 12.3 min
CC(C)c1cc(C(=O)NCCN(C)C)c2cnn(C(C)C)c2n1 | mouse | liver microsomes | – | – | 12 min
C[C@@H]1NC(=O)[C@H](CCCCN)NC(=O)[C@H](CCCNC(=N)N)NC(=O)[C@H](Cc2ccccc2)NC(=O)[C@H](CCCCN)NC(=O)CC/C=C/CCC(=O)NCCCC[C@@H](C(N)=O)NC(=O)[C@H](Cc2ccccc2)NC(=O)[C@H](Cc2ccccc2)NC(=O)[C@H](CCCNC(=N)N)NC(=O)[C@H](CCCCN)NC(=O)[C@H](Cc2ccccc2)NC1=O | male CD-1 mouse | liver microsomes | 3.1 µM | pH 7.4 | > 120 min
C/C(N)=N/C(=N\S(=O)(=O)c1ccc(C(F)(F)F)cc1)N1C[C@H](c2ccccc2)C(c2ccc(Cl)cc2)=N1 | mouse | liver microsomes | – | – | 73.5 min
C=CC(=O)N1CCCC(n2c(=O)c3ncccc3n(Cc3ccc(Oc4ccccc4)cc3)c2=O)C1 (stereo not drawn) | male CD-1 mouse | hepatocytes | 1 µM | – | 8.3 min
O=c1c2ccccc2[se]n1CCCCCCn1[se]c2ccccc2c1=O | mouse | liver microsomes | 5 µM | pH 7.4 | 37.2 min
COc1ccc(CSc2ncccn2)cc1OS(=O)(=O)c1ccc([N+](=O)[O-])cc1 | mouse | liver microsomes | – | – | 5 min
CC(C)(O)Cn1nc(-c2ccccc2)c2c(Cl)c(-c3ccccc3)nnc21 | mouse | liver microsomes | 1 µM | – | 5 min
CC(C)n1ncc2c(C(=O)NCCN(C)C)cc(C3CC3)nc21 | mouse | liver microsomes | – | – | 21.3 min
Cc1c(Cc2ccc(Cl)c(O[C@@H](C)C(=O)O)c2)c2ccc(C(=O)N[C@@H](C)c3ccc(C(C)(C)C)cc3)cc2n1CC1CCC1 | mouse | liver microsomes | – | – | > 60 min
Cc1sc2c(c1C)C(c1ccc(Cl)cc1)=N[C@@H](CC(=O)NCCCCCCCCC(=O)N1CCN(C(=O)c3cc(Cc4n[nH]c(=O)c5ccccc45)ccc3F)CC1)c1nnc(C)n1-2 | mouse | liver microsomes | – | – | 2.3 min
Cc1c(Cc2cc(F)cc(OC(C)(C)C(=O)O)c2)c2ccc(C(=O)N[C@@H](C)c3cc(F)cc(C(C)(C)C)c3)cc2n1CC1CCC1 | mouse | liver microsomes | – | – | 12 min
Cc1nc2ccc(S(=O)(=O)n3nc(SCc4ccc(Cl)cc4)nc3N)cc2s1 | mouse | liver microsomes | 1 µM | pH 7.4 | 2.3 min
Cc1c(Cc2ccc(Cl)c(O[C@H](C)C(=O)O)c2)c2ccc(C(=O)N[C@@H](C)c3ccc(C(C)(C)C)cc3)cc2n1C | mouse | liver microsomes | – | – | 42 min
C=CC(=O)Nc1cccc(Cn2ncc3cnc(Nc4cnn(CCOC)c4)nc32)c1 | male CD-1 mouse | hepatocytes | – | – | 108 min
Cc1c(Cc2ccc(Cl)c(O[C@@H](C)C(=O)O)c2)c2ccc(C(=O)N[C@@H](C)c3ccc(C(C)(C)C)cc3)cc2n1CC1CC1 | mouse | liver microsomes | – | – | > 60 min
CC(C)n1ncc2c(C(=O)NCCN)cc(C3CC3)nc21 | mouse | liver microsomes | – | – | > 145 min
